Measurements gathered from unrelated publications.
Numbered parts are unrelated; each lists some results of a single study.

Study 1
Target: Transcriptional repressor CTCF (CTCF, Homo sapiens, UniProt P49711, residues 1-727, full length assumed)
Technique: protein-binding microarray
Form: double-stranded DNA, one strand shown
Matrix: in vitro
Concentration: not given
Setting: k-mer, scored over probes, only values ≥0.25
Direction: higher = stronger binding
Quantity: E-score
Target sequence (chain): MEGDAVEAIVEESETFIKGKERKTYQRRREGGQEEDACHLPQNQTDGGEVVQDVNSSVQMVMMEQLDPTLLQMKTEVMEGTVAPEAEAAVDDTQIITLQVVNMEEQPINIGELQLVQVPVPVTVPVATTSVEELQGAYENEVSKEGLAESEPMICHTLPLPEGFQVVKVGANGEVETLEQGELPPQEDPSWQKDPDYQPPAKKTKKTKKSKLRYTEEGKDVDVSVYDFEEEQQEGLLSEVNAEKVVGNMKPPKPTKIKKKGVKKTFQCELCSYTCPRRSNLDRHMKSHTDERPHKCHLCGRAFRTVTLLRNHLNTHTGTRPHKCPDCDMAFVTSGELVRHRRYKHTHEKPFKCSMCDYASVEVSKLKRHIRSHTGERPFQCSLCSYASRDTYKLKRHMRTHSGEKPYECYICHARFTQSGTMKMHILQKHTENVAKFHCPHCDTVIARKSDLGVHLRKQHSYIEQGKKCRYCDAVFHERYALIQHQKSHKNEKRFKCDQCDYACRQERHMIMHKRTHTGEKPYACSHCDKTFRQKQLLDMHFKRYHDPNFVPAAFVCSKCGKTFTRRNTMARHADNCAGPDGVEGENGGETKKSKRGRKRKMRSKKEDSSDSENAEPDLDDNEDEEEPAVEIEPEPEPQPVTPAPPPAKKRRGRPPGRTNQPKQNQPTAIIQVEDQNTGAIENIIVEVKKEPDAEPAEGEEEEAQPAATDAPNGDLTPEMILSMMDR
Strand = GTCTGTTA; value = 0.309
Strand = ATGCGCAC; value = 0.46
Strand = AGGGTATA; value = 0.271

Study 2
Target: Histone acetyltransferase KAT6A, winged helix 2, GST fusion (KAT6A, Homo sapiens, UniProt Q92794, residues 85-181)
Technique: protein binding microarray
Form: double-stranded DNA, one strand shown
Matrix: in vitro
Concentration: not given
Setting: 8-mer, flanks averaged, mean of 2 arrays, mostly near background
Baseline: not given
Direction: higher = stronger binding
Quantity: E-score
Residues (chain): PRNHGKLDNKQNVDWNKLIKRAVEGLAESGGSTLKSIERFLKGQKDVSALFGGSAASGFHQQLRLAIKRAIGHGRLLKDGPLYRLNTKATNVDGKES
Strand = ACGCTTGA; value = 0.113
Strand = CGGTTACG; value = -0.0584
Strand = GAGAGCTA; value = -0.127
Strand = CTCGAAGC; value = 0.0433
Strand = GCAGTGAC; value = 0.0992
Strand = TCCAAAGA; value = 0.0392

Study 3
Target: Sal-like protein 4, full length isoform A (SALL4, Homo sapiens, UniProt Q9UJQ4, residues 1-1053)
Chain of UniProt Q9UJQ4 (whole entry, looked up): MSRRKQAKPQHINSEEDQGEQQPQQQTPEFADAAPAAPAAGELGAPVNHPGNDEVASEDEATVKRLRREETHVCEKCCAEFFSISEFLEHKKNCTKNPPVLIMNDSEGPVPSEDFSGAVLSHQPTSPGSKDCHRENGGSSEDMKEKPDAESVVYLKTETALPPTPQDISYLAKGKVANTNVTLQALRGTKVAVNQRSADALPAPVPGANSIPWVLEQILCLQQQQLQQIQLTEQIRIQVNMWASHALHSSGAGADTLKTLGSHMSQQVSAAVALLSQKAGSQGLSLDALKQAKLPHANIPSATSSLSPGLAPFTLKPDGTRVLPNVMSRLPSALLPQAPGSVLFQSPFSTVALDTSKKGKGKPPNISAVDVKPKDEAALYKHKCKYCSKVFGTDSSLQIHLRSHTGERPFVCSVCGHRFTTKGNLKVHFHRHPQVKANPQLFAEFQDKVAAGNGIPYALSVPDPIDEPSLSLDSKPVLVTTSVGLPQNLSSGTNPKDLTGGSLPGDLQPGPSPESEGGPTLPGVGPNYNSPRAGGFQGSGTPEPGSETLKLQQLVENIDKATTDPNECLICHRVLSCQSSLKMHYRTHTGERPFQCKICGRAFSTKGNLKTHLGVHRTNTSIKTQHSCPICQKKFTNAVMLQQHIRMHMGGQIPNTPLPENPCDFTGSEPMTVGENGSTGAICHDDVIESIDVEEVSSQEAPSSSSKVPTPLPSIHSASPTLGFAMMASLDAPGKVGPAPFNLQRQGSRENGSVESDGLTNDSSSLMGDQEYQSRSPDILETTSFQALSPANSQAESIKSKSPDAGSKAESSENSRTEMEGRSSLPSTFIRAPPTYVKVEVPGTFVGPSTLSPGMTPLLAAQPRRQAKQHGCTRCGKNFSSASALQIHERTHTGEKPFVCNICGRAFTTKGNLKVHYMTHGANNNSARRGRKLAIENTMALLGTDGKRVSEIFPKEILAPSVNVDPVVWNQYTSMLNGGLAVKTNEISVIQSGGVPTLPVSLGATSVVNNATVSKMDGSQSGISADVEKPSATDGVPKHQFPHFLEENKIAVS
Technique: universal PBM
Form: double-stranded DNA, one strand shown
Matrix: in vitro
Concentration: 600 nM
Setting: 8-mer, flanks averaged, mean of replicates
Direction: higher = stronger binding
Quantity: E-score
Strand = CCTTATCC; value = -0.195
Strand = AATAAGTA; value = 0.348
Strand = AAATACTT; value = 0.3
Strand = ACTTATCG; value = -0.0184
Strand = CTCTTCAC; value = -0.0206

Other studies, line by line
Substance = PhoQ, residues 284 288 289 292 302 303 TLSLKA; target = PhoP, residues 12 14 15 18 19 QWHVF (Escherichia coli, UniProt P23836); assay = Sort-seq, item: YFP reporter; test system = E. coli; conditions = PhoQ-PhoP variant library, together with: 10 µM Mg2+; how to read = baseline: high Mg2+ state, higher = stronger signaling; quantity = fold induction; value = 1.76
